Published values of several laboratories.
Numbered parts are unrelated; each lists some results of a single study. Substitutions count along the parent as printed.

Block 1 — method: RNA Bind-n-Seq; molecule type: RNA; medium: in vitro; concentration: 100 nM; reference: input RNA pool; reading: higher = stronger binding
Target: RING finger protein unkempt homolog, zinc fingers 1-6, SBP tag (UNK, Homo sapiens, UniProt Q9C0B0, residues 30-357)
Sequence of UniProt Q9C0B0 (30-357, looked up): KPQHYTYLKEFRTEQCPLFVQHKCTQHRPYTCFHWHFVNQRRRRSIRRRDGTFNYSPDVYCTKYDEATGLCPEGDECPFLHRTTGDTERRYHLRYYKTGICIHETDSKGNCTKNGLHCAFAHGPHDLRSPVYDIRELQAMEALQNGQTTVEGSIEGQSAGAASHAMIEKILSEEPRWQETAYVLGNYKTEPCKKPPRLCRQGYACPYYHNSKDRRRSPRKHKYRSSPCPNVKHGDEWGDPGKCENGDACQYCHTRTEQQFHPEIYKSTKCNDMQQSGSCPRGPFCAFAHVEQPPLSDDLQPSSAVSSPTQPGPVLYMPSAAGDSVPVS
Setting: RNA with constant flanks, vertebrate orthologous sites, ends assumed
Oligonucleotide | bound/input enrichment [ratio]
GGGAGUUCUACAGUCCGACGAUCCCCCAGCACGUUGGUAAAGACUGUGGAUUGGCUGCUUGUGUUUUCCUUGUUCUUUUUAAUUAGUUUCAUUAUGUACGCUACCAUCCGCACUGAGAGUAUCCGGUGGCUGAUUCCAGGACACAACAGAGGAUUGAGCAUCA | 0.946
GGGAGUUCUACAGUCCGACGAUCGGAAAUUCCCAUUGUCACUGAGAACCACCAAAUCUGACUUUUACAUUUGGUCUCAGAAUUUAGGUUCCUGCCCUGUUGGUUUUUUUUUUUUUUUUUAACAGUUUUCAAAAGUUCUUAAAGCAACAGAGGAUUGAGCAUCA | 0.957
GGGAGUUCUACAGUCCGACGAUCCAACUCAAUGGUUGAGGGUUCGGAGCUCAAAAAGGUUCGCUCCAACUCUAGAAUUUACCAUAGGUAUUUUUUAUUGGAUGCCGACAUGCAGAGCCUGAGGUGGGAACCAUCAAAGAAGGACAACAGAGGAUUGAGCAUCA | 0.24
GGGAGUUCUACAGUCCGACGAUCGGGACGCUUUGAUAUUAAAUUUGACAUAAAAAGCAGCUGAUUGUAAGCACAACUCUCUCCUAGCCAUUUAAAAAGGUAAAAAACAAAAAAGAAAAUCUACUAGUCUUGAACAAACUGUCACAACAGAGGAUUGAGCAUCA | 1.45
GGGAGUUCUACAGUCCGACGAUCAGAAGCUCAAGGAUUCAGAACUGGUUUUGCAAAUGUCCCAGGCAGAUAUGGAACAAACACUCGUGGUCAGCCCCGACCGUAAUAAACACCAUUAUUUAUUAUACUUAAGGGUAUUGACUUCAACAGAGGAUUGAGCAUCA | 0.299
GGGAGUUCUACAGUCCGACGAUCAAUACAUGUGUGAAACAUGUCUACCCAGAAAACAUAGCAUUCUGUAAAUAUCAAGGAAUUUAGCUAGAGUACUUUUAGGUAUUAAAUUACAUAUUAAGCAUUUAAAGUGAAUUUGGGAUUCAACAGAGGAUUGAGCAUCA | 0.363
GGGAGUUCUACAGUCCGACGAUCAUUUUUUAAAGUUUUUUUAAUUUAAAUUUUCCUUUUGGGGGUACAGUUUGCUCUACCAAAUAGUGAUCGUAACAAAUUGAUCUGUUUUGGAUGUUGCUAUAGUGACAUGCAGUUAUAUAUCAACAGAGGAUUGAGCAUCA | 0.611
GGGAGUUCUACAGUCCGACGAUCGGCUGCUUGAGCUAUAGGAAAAUGAGCUUUGCAUUUUAUACGUAUAUAUGUAUAUUUAAAUAGAAUACUUUUAUAUGAUGGGUGCUUUGCGUGUGAAUGCAGCAGGCUCUCAGAGGUACUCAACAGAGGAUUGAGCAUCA | 0.389
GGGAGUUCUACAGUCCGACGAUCCAUGUCCUUUGUACUGUGGUAUUCAGAACAGCCACAGUACUCACUUUUUCCAAAUGAUUCUAGUAAUUGCCUAGAAAUAUCUUUUUCUUACCUGUUAUUUAUCAAUUUUUCCCAGUAUUUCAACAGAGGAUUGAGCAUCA | 1.53
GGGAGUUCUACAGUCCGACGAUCGAAACUUAGUUAGUUACUUACACUUAAUGACCUCAUGCCUGAGUUCCUUUUUUCACUGAAUUACCUUUCUUUUUUAUUGUUGCAGUUUUAAUAAUAGGAAUAAAUAGAAGGCUGUGCUGGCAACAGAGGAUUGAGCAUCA | 2.21
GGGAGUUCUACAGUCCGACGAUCGUUGGUGCAGAGGGCUCUCUGUAUCAGUGCCCAUCACCCCUUCUUCAUACCAACUGUCCCUAGUUAUAGGAAUUUAAUAUUUUUAAAAGUUUUACAUUGCUGUAUAUUCAAAGAUUUGUUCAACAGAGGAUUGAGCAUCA | 0.736

Block 2 — method: RNA Bind-n-Seq; molecule type: RNA; medium: in vitro; concentration: 200 nM; setting: whole 134-nt RNA, ends assumed; with: 150 mM KCl; reference: input library; reading: higher = stronger binding
Target: Fragile X messenger ribonucleoprotein 1, C-terminal low-complexity region (Fmr1, Mus musculus, UniProt P35922)
Oligonucleotide | log2 enrichment
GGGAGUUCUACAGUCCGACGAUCCUCAAGUCCUGUGCUACACAUCGUAUGUACCGAAUCGGAGGUGGUUUUUUUGGAAAGUAUUAUGUUACGCCGUUCGGAUCUGCACUUCCAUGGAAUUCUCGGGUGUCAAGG | -0.508
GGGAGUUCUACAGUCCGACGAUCGUCCUGUGCUACACAUCGUAUGUACCGAAUCGGUUUUUUGGGUUUUUUGGUUUUUUGGGAAAGUAUUAUGUUACGCCGUUCGGAUCUGCAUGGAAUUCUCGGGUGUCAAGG | -0.84
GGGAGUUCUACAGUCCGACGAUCCUGUGCUACACAUCGUAUGUACCGAAUCGGGGUUUUUUUGGGGUUUGGGGAAAAAAAGGGGAAAGUAUUAUGUUACGCCGUUCGGAUCUGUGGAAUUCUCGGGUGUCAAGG | -0.432
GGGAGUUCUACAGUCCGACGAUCAAGUCCUGUGCUACACAUCGUAUGUACCGAAUCGGAAAAAAAGGUUUUUUUGGAGGAAAGUAUUAUGUUACGCCGUUCGGAUCUGCACUUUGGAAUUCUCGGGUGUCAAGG | -1.36
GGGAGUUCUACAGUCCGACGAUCUCCUGUGCUACACAUCGUAUGUACCGAAUCGGGGAAAAAAAGGGGAAAGGGGUUUGGGGAAAGUAUUAUGUUACGCCGUUCGGAUCUGCAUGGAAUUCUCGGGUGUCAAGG | 0.698
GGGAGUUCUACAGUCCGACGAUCAGUCCUGUGCUACACAUCGUAUGUACCGAAUCGGGUGGGUUUUUGGGAAAAAAAGGGAAAGUAUUAUGUUACGCCGUUCGGAUCUGCACUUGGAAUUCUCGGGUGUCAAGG | 0.192
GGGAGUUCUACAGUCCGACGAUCUGGCCCUGGUGGCAUGCGGGGAGGAAGAGGUGGCCUCAUGGAUCGCGGUGGUCCCGGUGGAAUGUUCAGAGGUGGCCGUGGUGGAGACAGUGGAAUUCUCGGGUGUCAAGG | -0.106
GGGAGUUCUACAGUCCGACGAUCAAGUCCUGUGCUACACAUCGUAUGUACCGAAUCGGCCCCGGGGCCCCGGCCCCGGGAAAGUAUUAUGUUACGCCGUUCGGAUCUGCACUUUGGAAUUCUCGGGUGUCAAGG | -1.1
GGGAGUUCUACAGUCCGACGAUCUCAAGUCCUGUGCUACACAUCGUAUGUACCGAAUCGGAAAGGAAAAAGGAAAGGAAAGUAUUAUGUUACGCCGUUCGGAUCUGCACUUCCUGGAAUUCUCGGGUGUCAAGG | -0.768
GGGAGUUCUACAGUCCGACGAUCCUGUGCUACACAUCGUAUGUACCGAAUCGGGGUUUUUUUGGGGUUUUUUUGGGGAAAGGGGAAAGUAUUAUGUUACGCCGUUCGGAUCUGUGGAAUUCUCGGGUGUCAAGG | -0.214
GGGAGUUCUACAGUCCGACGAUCGCAGGAAGUAAAAACAAAUGGAAAUGCUUCGGAUAGUGGCAGGGGUGGGGGUUGCUAAGGAAAGGGUGGGAUGGGAGUGGGCAAAGAGUUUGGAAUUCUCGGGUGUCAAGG | 0.24
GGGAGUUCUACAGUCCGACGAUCAAGUCCUGUGCUACACAUCGUAUGUACCGAAUCGGGUUUUGGGUUUUGGUUUUGGGGAAAGUAUUAUGUUACGCCGUUCGGAUCUGCACUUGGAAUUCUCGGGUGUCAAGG | 0.249
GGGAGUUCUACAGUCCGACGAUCCUCAAGUCCUGUGCUACACAUCGUAUGUACCGAAUCGGCCGGCCGGGGCCGGGGAAAGUAUUAUGUUACGCCGUUCGGAUCUGCACUUCCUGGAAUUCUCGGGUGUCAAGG | -0.4
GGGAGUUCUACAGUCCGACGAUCUCCUGUGCUACACAUCGUAUGUACCGAAUCGGGGUUUUUGGGGUGGGGUUUUUUUGGGGAAAGUAUUAUGUUACGCCGUUCGGAUCUGCAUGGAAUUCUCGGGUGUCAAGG | 0.855

Block 3 — target: UBE2V2 UBC core domain (UniProt Q15819); method: yeast two-hybrid; medium: yeast; setting: mostly zero background; reference: not given; reading: higher = stronger interaction
B1: NHLRC1 RING domain (UniProt Q6VVB1); chain MREAEISLLECKVCFEKFGHRQQRRPRNLSCGHVVCLACVAALAHPRTLALECPFCRRACRGCDTSD
B2: RNF32 RING domain (UniProt Q9H0A6); chain VQALRRETHECSICLAPLSAAGGQRVGAGRRSREMALLSCSHVFHHACLLALEEFSVGDRPPFHACPLCRSCYQKKILEC
B3: PJA2 RING domain (UniProt O43164); chain DHTAIGQEQCCPICCSEYIKDDIATELPCHHFFHKPCVSIWLQKSGTCPVCRRHFPPAVIEA
B4: RNF115 RING domain (UniProt Q9Y4L5); chain TQEQVDMGLECPVCKEDYTVEEEVRQLPCNHFFHSSCIVPWLELHDTCPVCRKSLNGEDSTR
B5: RNF130 RING domain (UniProt Q86XS8); chain DKETDPDFDHCAVCIESYKQNDVVRILPCKHVFHKSCVDPWLSEHCTCPMCKLNILKALGIV
B6: RNF10 RING domain (UniProt Q8N5U6); chain VRICSHEVPSCPICLYPPTAAKITRCGHIFCWACILHYLSLSEKTWSKCPICYSSVHKKDLKS
B7: RNF7 RING domain (UniProt Q9UBF6); chain AICRVQVMDACLRCQAENKQEDCVVVWGECNHSFHNCCMSLWVKQNNRCPLCQQDWVVQRIGK
B8: MDM2 RING domain (UniProt Q00987); chain TQDKEESVESSLPLNAIEPCVICQGRPKNGCIVHGKTGHLMACFTCAKKLKKRNKPCPVCRQPIQMIVLTYFP
Residues (chain): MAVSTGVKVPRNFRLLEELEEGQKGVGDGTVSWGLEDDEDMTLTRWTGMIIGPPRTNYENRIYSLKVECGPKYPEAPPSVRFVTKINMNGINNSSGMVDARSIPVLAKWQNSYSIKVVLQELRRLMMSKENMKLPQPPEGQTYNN
Molecule | lacZ reporter activity
AAQLLEEKLTCAICLGLYQDPVTLPCGHNFCGACIRDWWDRCGKACPECREPFPDGAELR (TRIM65 RING domain (UniProt Q6PJ69)) | 0
VPADASPDSKCPICLDRFDNVSYLDRCLHKFCFRCVQEWSKNKAECPLCKQPFDSIFHSV (TOPORS RING domain (UniProt Q9NS56)) | 0
B1 (NHLRC1 RING domain) | 0
B2 (RNF32 RING domain) | 0
FLSKVEETFQCICCQELVFRPITTVCQHNVCKDCLDRSFRAQVFSCPACRYDLGRSYAMQ (UHRF1 RING domain (UniProt Q96T88)) | 0
B3 (PJA2 RING domain) | 0
B4 (RNF115 RING domain) | 0
B5 (RNF130 RING domain) | 0
B6 (RNF10 RING domain) | 0
B7 (RNF7 RING domain) | 0
B8 (MDM2 RING domain) | 0

Block 4 — method: universal PBM; molecule type: double-stranded DNA, one strand shown; medium: in vitro; concentration: not given; reading: higher = stronger binding
Target: Sal-like protein 4, full length isoform B (SALL4, Homo sapiens, UniProt Q9UJQ4-2, residues 1-616)
Setting: 8-mer, flanks averaged, mean of replicates
Target sequence (chain): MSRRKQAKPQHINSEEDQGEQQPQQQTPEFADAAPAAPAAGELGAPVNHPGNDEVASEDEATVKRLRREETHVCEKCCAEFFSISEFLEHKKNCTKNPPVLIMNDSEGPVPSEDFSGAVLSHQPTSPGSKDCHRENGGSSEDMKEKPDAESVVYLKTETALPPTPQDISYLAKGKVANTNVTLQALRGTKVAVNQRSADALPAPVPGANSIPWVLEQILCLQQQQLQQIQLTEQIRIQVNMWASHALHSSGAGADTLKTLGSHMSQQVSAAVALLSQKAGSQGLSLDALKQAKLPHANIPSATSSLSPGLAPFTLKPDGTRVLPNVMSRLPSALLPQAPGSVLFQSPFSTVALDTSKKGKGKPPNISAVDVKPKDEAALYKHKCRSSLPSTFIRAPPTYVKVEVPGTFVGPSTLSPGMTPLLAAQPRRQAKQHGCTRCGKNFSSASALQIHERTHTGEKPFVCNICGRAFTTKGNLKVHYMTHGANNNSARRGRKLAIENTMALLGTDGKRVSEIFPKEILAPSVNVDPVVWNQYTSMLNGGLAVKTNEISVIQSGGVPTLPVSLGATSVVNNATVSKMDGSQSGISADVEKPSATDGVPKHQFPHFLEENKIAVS
Oligonucleotide | E-score
AGCAGGTG | -0.0754
GTTCTCGA | -0.0175
CCCCTCGC | -0.204
CTGTGGCA | -0.101
AGTGCAAA | 0.189
AAGCAAGG | -0.15
CCTATACC | 0.0382
CCCCCGCA | -0.211
AGAGCCCA | -0.148
AACTTGGA | -0.0335
CAGACTAC | -0.147
ACGGCCAA | -0.0589
GCAGCCAA | -0.0387
GCGAAGCC | -0.201
ATCCGGGC | -0.396
ATAGTTTG | 0.225
CCAAGCCC | -0.219

Block 5 — target: CCNE1, cyclin fold, Cln2 fusion (human); method: yeast growth competition, sequencing; medium: yeast; setting: weak parent motif; reference: not given; reading: higher = stronger binding
Starting sequence: MASTL docking peptide (human); PMIAKNLMCELDE
Substitution | normalised enrichment score
A4T | 0.0258
L11D | -0.456
M2Y | 0.34
A4P | 0.211
L11P | 0.099
K5Q | -0.176
M2D | 0.188
I3E | 0.101
M2N | -0.239
A4K | 0.592
M2I | 0.0795
E10C | -0.0861
L7P | -0.201
L11H | 0.208
A4H | 0.101
C9N | 0.112
L7H | -0.932
K5R | 0.316
I3S | -0.306
N6A | -0.0743
I3A | -0.182
N6R | 0.12
K5N | 0.488
C9T | -0.163
C9K | -0.0999
